Measurements pooled from the literature.
Compare with care: the assays were run in different laboratories. Numbers after ± are the reported error.

Structure (SMILES)	assay	test system	conditions	scale	measurement	value
Cc1ccc2c(c1)sc(-c1ccc(N(C)C)cc1)[n+]2C	–	PBS	free dye	–	fluorescence quantum yield	0.001
CC1(C)C(/C=C/C=C/C=C/C=C2\N(CCCCS(=O)(=O)O)c3ccc4ccccc4c3C2(C)C)=[N+](CCCCS(=O)(=O)[O-])c2ccc3ccccc3c21	–	DMSO	–	–	fluorescence quantum yield	8.3 ± 0.5%
C=Cc1c(C)c2cc3nc(c4c5[nH]c(cc6nc(cc1[nH]2)C(C)=C6CC)c(C)c5C(=O)C4)[C@@H](CCC(=O)O)[C@@H]3C	fluorescence spectroscopy	methanol	1 µM	–	fluorescence emission maximum	672 nm
Nc1ccccc1/C=C/C(=O)c1ccccc1	–	toluene	–	reference: coumarin 153 in ethanol	fluorescence quantum yield	5.5 ± 1%
COC(=O)c1ccccc1-c1c2ccc(=N)cc-2oc2c1ccc1cccc(O)c12.Cl	–	12.5 mM aqueous NaOH	pH 12.1, 10% DMSO	–	fluorescence quantum yield	0.11%
CC1(C)C(/C=C/C=C/C=C/C=C2\N(CCCCS(=O)(=O)O)c3ccc4ccccc4c3C2(C)C)=[N+](CCCCS(=O)(=O)[O-])c2ccc3ccccc3c21	–	solution	66 µM, below -20 °C, dark, 800 nm	–	fluorescence stability duration	> 2 months
COC(=O)c1ccccc1C1=c2cc3c4c(c2Oc2c1ccc1cccc(O)c21)CCC[N+]=4CCC3.[Cl-]	–	12.5 mM aqueous NaOH	pH 12.1, 10% DMSO	–	fluorescence quantum yield	0.3%
COc1ccc2c(c1)sc(-c1ccc(N(C)C)cc1)[n+]2C	–	PBS	free dye	–	fluorescence quantum yield	0.007

Some of these lines once more:
Structure (SMILES)	assay	test system	conditions	scale	measurement	value
COC(=O)c1ccccc1-c1c2ccc(=N)cc-2oc2c1ccc1cccc(O)c12.Cl	–	12.5 mM aqueous NaOH	pH 12.1, 10% DMSO	–	fluorescence quantum yield	0.11%
